Assay results collected from several papers.
A part holds a random share of what one study measured.

Study 1
Target: Sal-like protein 4, full length isoform B (SALL4, Homo sapiens, UniProt Q9UJQ4-2, residues 1-616)
Technique: universal PBM
Form: double-stranded DNA, one strand shown
Sample: in vitro
Tested at: not given
Setting: 8-mer, flanks averaged, mean of replicates
Direction: higher = stronger binding
Quantity: E-score
ACCACCAT: -0.16
CGGTAGTC: -0.265
CTACTTAA: 0.0825
CCCTGTCC: -0.301
GGTCCAAA: -0.0781
CATGACCC: -0.0578
AACAAAAA: 0.302
CCGGAAGA: -0.139
GACTGGGC: -0.268
GGTGCTCA: -0.0988
CGCTCCCG: -0.28
GGTCTCAA: -0.103
AGATAAAC: 0.194
ATGAAACC: 0.142
CATGTATC: 0.19
GTGGGGTA: 0.00529
GTTTGCAA: 0.123
ATATCCTA: 0.153
TCTCCAGA: -0.143
CAAGCTGC: -0.134
GCAGGCCA: -0.269
CAGAGGAG: -0.136
TCATCAAA: 0.0142
CAAGTGAG: -0.0884
ACTTCTCT: 0.0979

Study 2
Target: Prothrombin, mature alpha-thrombin (F2, Homo sapiens, UniProt P00734)
Technique: aptamer microarray, sandwich
Form: DNA with 2'F-ANA
Sample: in vitro
Tested at: 200 nM
Setting: whole 15-mer aptamer, many near background
Together with: Cy3 exosite-II aptamer, 400 nM
Direction: higher = stronger binding
Quantity: mean fluorescence intensity
Oligonucleotide: GGTTGGTGTGGTTGG
2'F-ANA at 2 3 4 5 9 12 13 14: 47.1 a.u.
2'F-ANA at 6 9 10 11 14 15: 98.7 a.u.
2'F-ANA at 1 7 8 9 10 11 12 13 14 15: 96.1 a.u.
2'F-ANA at 3 6 7 10 12 13 14 15: 359 a.u.
2'F-ANA at 2 6 7 13: 286 a.u.
2'F-ANA at 2 3 6 7 8 10 11 13 14: 221 a.u.
2'F-ANA at 1 2 4 5 7 9 10 12 14 15: 44.3 a.u.
2'F-ANA at 1 4 6 7 8 9 11 12 14 15: 81.3 a.u.
2'F-ANA at 2 3 4 5 6 7 8: 100 a.u.
2'F-ANA at 1 6 9 11 13 14: 55.3 a.u.
2'F-ANA at 3 5 6 8 12 13 14: 98.6 a.u.
2'F-ANA at 2 4 7 8 9 10 11: 108 a.u.
2'F-ANA at 2 3 4 5 6 8 9 10 11 15: 91.6 a.u.
2'F-ANA at 1 2 3 5 7 9 11 13 15: 64.4 a.u.
2'F-ANA at 2 3 4 8 10 11 13 14 15: 148 a.u.
2'F-ANA at 1 2 4 13 14 15: 51 a.u.
2'F-ANA at 3 4 5 8 15: 114 a.u.
2'F-ANA at 1 4 5 6 7 8 10 11 12 14 15: 52.1 a.u.
2'F-ANA at 1 2 4 5 8 9 13 15: 115 a.u.
2'F-ANA at 1 3 5 6 8 10: 47.8 a.u.
2'F-ANA at 1 3 6 9 10 13 14: 59.3 a.u.
2'F-ANA at 3 4 5 7 10 12 13 14: 55.2 a.u.
2'F-ANA at 7 8 11 13 14: 238 a.u.
2'F-ANA at 2 4 5 6 8 9 10 12 13 14: 48.2 a.u.

Study 3
Target: human cyclin A2
Observed: peptide binding
Technique: competitive growth sequencing
Form: peptide
Organism: Saccharomyces cerevisiae
Strain: cyclin A2-Cln2 fusion strain
Tested at: concentration not given
Setting: peptide tiling library
Relative to: unfused Cln2 strain
Direction: direction not given
Quantity: binding score
FEKVKRRLDLDIDGLQ: 2.04
ALLRRLQDVANDRGSH: 0.683
SFLIEYEFLIPPSLKP: 0.231
NCKKRRALDFLSRLPL: 0.302
RRRRLLFWDKETQI: 1.56
SSPSVRRQLFVTVVKT: 1.97
TAGSAKARAFGEDPPK: -0.449
GSKACARAFGPVDSEQ: -0.514
ISRLFPPRTPGWHQLQ: 1.11
ARKRLELGNLGNPQ: 2.53
KPHVSDEEEEEPPFYH: 0.198
GLPDFVFQQQPVESEA: 0.49
DKYDEGLYRFNSLNDL: 0.194
VSRNLRSSLKSSLHTL: 1.01
ATNSSHTDAHEILVSD: 0.496
FEKVKARADLDIDGLQ: -0.0631
EAAPPTQEAQGETEPT: 0.825
EVTKVRRNLFNQELLS: 1.7
NVVSADDAIQFTRVSS: -0.183
AKRSLGFLPQPVPL: 1.24
TSNARASANFGGSTGT: -0.121
NRLLKLFTRCLTPLVP: 0.392
RSLKLDGLLEEN: 1.13
ELGMEHCEKFEISETS: 0.766
PPTFLSTGEIHAFLSS: 0.113

Study 4
Target: TAR DNA-binding protein 43, full length, His tag (TARDBP, Homo sapiens, UniProt Q13148, residues 1-414)
Technique: RNA Bind-n-Seq
Form: RNA
Sample: in vitro
Tested at: 20 nM
Setting: 6-mer, flanks averaged, single round
Together with: 150 mM KCl
Relative to: input library
Direction: higher = stronger binding
Quantity: 6-mer enrichment (R)
UAAGCC: 0.637
UUCUGG: 0.825
UACCUG: 0.633
UAAAAU: 0.67
CCCCCG: 0.693
CGAUGU: 0.775
GAGCAU: 0.874
AUCCCU: 0.598
UGCAAA: 0.689
AACCGC: 0.648
AACCCA: 0.617
CCGCGG: 1.57
UGAGAC: 0.832
CUGACU: 0.612
AGUGCG: 1.61
GCACAU: 0.732
GGUCUA: 0.838
GGCCCA: 0.971
GUCGGU: 1.25
CAUUGG: 0.879
CAAGAA: 0.773
ACAACU: 0.631
UCUCUG: 0.612
CUCAGC: 0.652
AAGGGA: 2.14

Study 5
Target: RING finger protein unkempt homolog, zinc fingers 1-6, SBP tag (UNK, Homo sapiens, UniProt Q9C0B0, residues 30-357)
Sequence of UniProt Q9C0B0 (30-357, looked up): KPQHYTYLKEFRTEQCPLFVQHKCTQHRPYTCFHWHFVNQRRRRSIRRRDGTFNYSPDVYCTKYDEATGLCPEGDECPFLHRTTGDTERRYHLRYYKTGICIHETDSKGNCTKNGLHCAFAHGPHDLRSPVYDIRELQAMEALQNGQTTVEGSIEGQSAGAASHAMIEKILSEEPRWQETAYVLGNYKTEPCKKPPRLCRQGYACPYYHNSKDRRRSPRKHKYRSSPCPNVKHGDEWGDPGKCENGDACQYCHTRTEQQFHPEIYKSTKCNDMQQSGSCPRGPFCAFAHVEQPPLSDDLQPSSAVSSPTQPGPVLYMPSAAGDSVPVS
Technique: RNA Bind-n-Seq
Form: RNA
Sample: in vitro
Tested at: 100 nM
Setting: RNA with constant flanks, vertebrate orthologous sites, ends assumed
Relative to: input RNA pool
Direction: higher = stronger binding
Quantity: bound/input enrichment
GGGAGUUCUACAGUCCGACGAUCAAAGCCCCGAUUUUAGAUGUGAUAUUUAGGCUUUCAUUCCAUUGUUUUUGUCUUCUUGUUUAGAUACCGAUCUUUUAAAUUCUUGCAUUUUAGUAAGAAAGCUACCUUUUUAUGGAUGUUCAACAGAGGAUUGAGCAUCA: 1.06 ratio
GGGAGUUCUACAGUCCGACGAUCUACCUUUUGUAGGCCAAAUACCUUCCUUCCACUGCUCUGCCAACUGGAAGCACAGAAAACUAGAAUUUCAUUUAUUUUGUUUAAAAAAAAUUGAUUUCUUGUAACAUCCAAUAGGAAUGCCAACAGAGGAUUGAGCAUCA: 0.648 ratio
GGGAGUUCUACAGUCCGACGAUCGCCUCCAACAGGCACAUUCAGGGAGAGAGAAGCUUCAGGGAACAUAAAUUUAUUUAAUAGUAGUGAUCAUGAAGUACAAAUUUGAUAUAAUUGAAUAAUUUGUGAGGGGUGAUAAAUUUUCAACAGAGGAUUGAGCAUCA: 0.979 ratio
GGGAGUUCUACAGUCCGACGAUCUUUCCCAUUGCCCCUAAAGUAGAACUUUUUAAAACUGUGUCACCACCACUUCUAAAAAUUUAGCAAUAUUUGAAGAAAAUGCUAAAAAUGAAAUUUUGCUUGGUGUUUUGCAAACCAAAUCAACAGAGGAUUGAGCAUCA: 0.393 ratio
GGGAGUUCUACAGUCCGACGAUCGUUGUGACCCAUUUAACAUACACAAAAAACUAGCAAAAAAGAAUUUGCAUGUAAUUGACUUAGAUGACGCCACUUUUCUGAGUGCAAAAUUUGGAAGACAGCUUGUACCUGGUUGGAAGCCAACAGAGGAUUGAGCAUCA: 1.08 ratio
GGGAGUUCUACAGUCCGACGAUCGAACACUGAAAAGACUUCCAUGCUUAUGUUAAAUGCUAAAAGUUAAGCUGCAGUAUAUUAGUAAAUAAUUACUUUAUUUCUGCAGUAUGGUUUGCUUUUUUAAAGUCAGACAGUAGACAGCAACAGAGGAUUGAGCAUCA: 0.589 ratio
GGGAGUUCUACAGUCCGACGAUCCGCCCAUUAGUAAAAGCUACCUACUUUCAUUGCAGUAUGUCAAAAGGAUCGAAUGGUCUUUUUCACAUUCAAACUAAAACCUCUUCCAAGUUCACUCUUCUGUACCAUUACAGUUCCUUACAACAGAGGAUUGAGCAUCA: 1.24 ratio
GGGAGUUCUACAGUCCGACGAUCACUACCCCAGUCGUACUGUGUUGGGUUGGCAUUGUACAGAAAUUAACAGCCAUAUUGGUCUAGAAAUGUUAAACACAAUUUUUUCCAUUUGUACAGGGGUAACGCGCUGUAUUAAAUGUGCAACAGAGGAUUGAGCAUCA: 0.516 ratio
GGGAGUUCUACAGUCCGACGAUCAUCCUGGUUGCUUUUUGUCACCUUGGUGAGGUAAAGGCUCCCUUGGGAUUUUGUUGGCACUAGAUGCCAGCCACCCAUAAUAAGUCUUGUCACACUUCAUGUCAUUUCGUUUCAUUUCUUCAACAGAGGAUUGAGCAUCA: 0.113 ratio
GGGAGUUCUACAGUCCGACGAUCGAAUUGAACAAAAGCGUUUCCACUGGGUUUUGCUUGUAAGAAAAAACGUACCCGAGCACAUAGAGCUUUUUAAUAGCGCUAACCAAUGCCUUUUUAGAUGUAUUUUUGAUGUAUAUAUCUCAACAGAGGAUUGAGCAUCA: 0.751 ratio
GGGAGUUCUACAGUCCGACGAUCUACACCAGAUACUUUUAACUGUUUUAAAGAUACAAAUAAGCUUUGCUUUUUGCAUUAAAAUAGAAUACUUUUAUAUUAUAAGUGCUUCAAAUGUGUGGAAUGUUAGUUUGCUCUUACAAUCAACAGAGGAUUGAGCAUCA: 0.29 ratio

Study 6
Target: Interferon regulatory factor 5, full length, phosphomimetic (IRF5, Homo sapiens, UniProt Q13568-2, residues 1-514, K96S/S451D/S453D/S456D/S462D)
Technique: protein-binding microarray
Form: double-stranded DNA, one strand shown
Sample: in vitro
Tested at: 250 nM
Setting: 60-bp whole probe
Together with: salmon DNA 0.4 mg/ml
Relative to: random background probes
Direction: higher = stronger binding
Quantity: log fluorescence
All sequences stand within: GCCTAGCAC … GTCTTGATTCGCTTGACGCTGCTG
GACGGTTTCCTCTCCCTGACGTGCTAG: 0.437 z-score
TCTGGTTCCCATTCCAGGGTGTGCTAG: -0.207 z-score
TTAGGACTGTGGTTTCGGTTAGTGCTA: 7.85 z-score
GACCGTCTCCTTCTCCTGACGTGCTAG: -0.132 z-score
GACGGACTAGGGACTGGGGACGTGCTA: -0.354 z-score
CTTAGAATAATTTTTTAGCTTGTGCTA: 0.472 z-score
GACGGTATCGGAATGGGGACGTGCTAG: 1.8 z-score
TTAGGTATAGACACTGGGTTAGTGCTA: -0.156 z-score
GTGGCCTTTGTTTCCAGGCAGTGCTAG: -0.35 z-score
TTAGATCTCAGTATAGATTAGTGCTAG: 0.352 z-score
GACGCTCTCGGTATCGGGACGTGCTAG: 1.2 z-score
TTAGGTATCCACTATCGGTTAGTGCTA: 7.24 z-score
TTAGGTATCGACTCTCGGTTAGTGCTA: 3.35 z-score
TTAGGTTTCGACACTGCGTTAGTGCTA: 5.84 z-score
TGTTATTAAAATTTAATGGGGTGCTAG: 0.405 z-score
AGATGTGTCTTAAATAGGGCAGTGCTA: -0.102 z-score
TCAAGTTTTAATAACACACTGTGCTAG: 0.214 z-score
TTAGATTTCCGTATCGATTAGTGCTAG: 6.33 z-score
TTAGGTATCGACTATCCGTTAGTGCTA: 3.75 z-score
GACTGACTGGACACTGGGGACGTGCTA: -0.294 z-score
GACGATTACAGTCTCGAGACGTGCTAG: 0.222 z-score
TCATATTAAAATTTCATACTGTGCTAG: 1.28 z-score
TCATTTATGGTATTTTTACTGTGCTAG: 0.819 z-score
TTAGGTTTTCTACTGCTTTAGTGCTAG: 0.65 z-score
TAAGGTATCGGGTTTCGGTTAGTGCTA: 8.25 z-score

Repeated from above (study 1):
GACTGGGC: -0.268
GGTGCTCA: -0.0988
CGCTCCCG: -0.28
GGTCTCAA: -0.103
AGATAAAC: 0.194
ATGAAACC: 0.142
CATGTATC: 0.19
GTGGGGTA: 0.00529
